Assay results collected from several papers.
A part holds a random share of what one study measured.

Study 1 — technique: RNA Bind-n-Seq; form: RNA; medium: in vitro; tested at: 200 nM; notes: whole 134-nt RNA, ends assumed; with: 150 mM KCl; baseline: input library; direction: higher = stronger binding; quantity: log2 enrichment
Target: Fragile X messenger ribonucleoprotein 1, C-terminal low-complexity region (Fmr1, Mus musculus, UniProt P35922)
Constant ends, left off below: GGGAGUUCUACAGUCCGACGAUC … UGGAAUUCUCGGGUGUCAAGG
CAAGUCCUGUGCUACACAUCGUAUGUACCGAAUCGGGGUGGGGUGGGGAAAGGGGAAAGUAUUAUGUUACGCCGUUCGGAUCUGCACUUC: 1.2
UCAAGUCCUGUGCUACACAUCGUAUGUACCGAAUCGGUGGAAAAAGGAAAAAGGAAAGUAUUAUGUUACGCCGUUCGGAUCUGCACUUCC: -0.537
GUCCUGUGCUACACAUCGUAUGUACCGAAUCGGGGAAAAAAAGGGGAGGGGUUUGGGGAAAGUAUUAUGUUACGCCGUUCGGAUCUGCAC: 0.34
CACAGACAACACGCACCCACACAGACACAGAGGGAAGGGGUUGGGAUGGGGACAGGGUGCACAGCAGAGCGGGGUAGGACCCCAGCCCCU: 1.22
UUAGAUGAGGACCUUGAGAUUGAAUUGGUUGAGGAAGAGCCUCCAUUCCUGAGAGGGCACACUAAGCAAAGCAUGGACAUGAGCCCCAUU: -0.482
AGUCCUGUGCUACACAUCGUAUGUACCGAAUCGGGGUUUUGGGGUUUUGGUUUUGGGAAAGUAUUAUGUUACGCCGUUCGGAUCUGCACU: 0.178
CAAGUCCUGUGCUACACAUCGUAUGUACCGAAUCGGAAAGGGGAAAGGGGAAAGGAAAGUAUUAUGUUACGCCGUUCGGAUCUGCACUUC: -0.178
UCAAGUCCUGUGCUACACAUCGUAUGUACCGAAUCGGUUUGGUGGAAAAAAAGGAAAGUAUUAUGUUACGCCGUUCGGAUCUGCACUUCC: -0.268
CUCAAGUCCUGUGCUACACAUCGUAUGUACCGAAUCGGGUUGGGUUGGUUGGGAAAGUAUUAUGUUACGCCGUUCGGAUCUGCACUUCCA: 1.07
UGGGAGGUGGAUUUUGUUUAUUUUUUUAGCUCAUUUCCAGGGGUGGGAAUUUUUUUUUAACAUGUGUCAUGAAUAAAGUUGUUUUUGAAA: 0.152
CACAGACAACACGCACCCACACAGACACAGUGGGAAGGGGUUGGGAUGGGGACAGGGUGCACAGCAGGGCGGGGUAGGACCCCAGCCCCU: 1.34
UGGGAGGUGGAUUUUGUUUAUUUUUUUAGCUCAUUUCCAGGGGUGGGAAUUUUUUUUUAAUAUGUGUCAUGCAUAAAGUUGUUUUUGAAA: 0.227
UGGAGAUGACAGAAAUGACUGGUGUGUCGCUGAAACGUGGGGCACUGGUUGUCGAAGAUAAUGACAGUGGAGUCCCAGUUGAAGAGACAA: -2.03
AAGUCCUGUGCUACACAUCGUAUGUACCGAAUCAAACCCAAAUUUAAAUUUUUAAAAAAGUAUUAUGUUACGCCGUUCGGAUCUGCACUU: 0.237

Study 2 — technique: universal PBM; form: double-stranded DNA, one strand shown; medium: in vitro; tested at: not given; direction: higher = stronger binding; quantity: E-score
Target: Sal-like protein 4, full length isoform B (SALL4, Homo sapiens, UniProt Q9UJQ4-2, residues 1-616)
Notes: 8-mer, flanks averaged, mean of replicates
Target sequence (chain): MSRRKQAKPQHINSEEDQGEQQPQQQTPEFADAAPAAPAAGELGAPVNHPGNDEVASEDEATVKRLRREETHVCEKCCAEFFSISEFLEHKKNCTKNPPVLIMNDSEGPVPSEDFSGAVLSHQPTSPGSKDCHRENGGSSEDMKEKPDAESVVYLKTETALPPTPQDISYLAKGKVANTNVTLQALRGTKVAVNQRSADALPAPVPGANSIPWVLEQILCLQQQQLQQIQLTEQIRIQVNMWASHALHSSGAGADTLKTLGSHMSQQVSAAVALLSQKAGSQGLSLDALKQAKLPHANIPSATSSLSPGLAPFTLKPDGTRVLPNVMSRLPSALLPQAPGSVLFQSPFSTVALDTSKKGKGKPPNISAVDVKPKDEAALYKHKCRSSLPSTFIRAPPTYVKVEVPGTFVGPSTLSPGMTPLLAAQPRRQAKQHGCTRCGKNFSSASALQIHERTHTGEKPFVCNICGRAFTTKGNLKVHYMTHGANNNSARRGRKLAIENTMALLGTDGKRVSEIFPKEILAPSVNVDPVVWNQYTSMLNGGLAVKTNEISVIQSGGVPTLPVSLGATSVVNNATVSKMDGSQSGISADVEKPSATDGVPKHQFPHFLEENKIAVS
ATCAGACA: 0.00721
GTACTAGA: 0.0954
ATCTTGGA: 0.00395
ACATAGAA: 0.117
GAGAGCAC: -0.0961
AATGAACC: 0.0194
GCAGGCAA: -0.057
ACTGAGCA: -0.131
ACTGAAAC: 0.154
CGGCATTA: 0.0131
AGGAGCGC: -0.236
CGCCGAGA: -0.231
CAAGTCAG: -0.193
CCTCTTCC: -0.189
CAGTCCTA: 0.00403
AACCTTGA: -0.0309
GCTGTCAA: -0.19
CCCCCCGG: -0.463
ATCTGGTC: 0.0299
ACCAGGCA: -0.203
CAACCCGA: -0.185
AGATCGGG: -0.161
AACCACGA: -0.0632
ATGGGAAA: 0.0334

Study 3 — technique: RNA Bind-n-Seq; form: RNA; medium: in vitro; tested at: 365 nM; baseline: no-protein control; direction: higher = stronger binding; quantity: RBNS enrichment (R)
Target: RNA binding protein fox-1 homolog 2, RRM domain, GST-SBP tag (RBFOX2, Homo sapiens, UniProt O43251-10, residues 100-194)
Notes: natural RNA segment, single round, ends assumed
Constant ends, left off below: GGGAGUUCUACAGUCCGACGAUC … UGGAAUUCUCGGGUGCCAA
Target sequence (chain): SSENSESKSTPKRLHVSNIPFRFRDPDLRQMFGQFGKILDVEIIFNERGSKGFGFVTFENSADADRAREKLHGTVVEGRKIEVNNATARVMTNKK
ACUCUGUCCCCUCAUGACUUUUUAGACACAGGGACUAGGACAUCGACCACCCUCUGCCCCUCCUGCAGUCAGAACCCGAGUAGUGCAAGAACGGCCACCCGGUUUUGCCA: 0.395
AGUGGGACACCAAGGUAGAAAGGGAGUAAGAAUGGUUUUCCAGUGAGUUGAAUGUGCACACGUUUAUGAGAGGCCUUUGGGUGAGCUUUCUGCUCAUUCCUUGGUUUGUC: 1.87
AAAGUCAGUGGGAACGUGACUGCCCCAACUCCUGGAAGCUGUGUCCUUGCACCUGCAUCCGUAGUUCCCUGAAAACCCAGAGAGGAAUCAGACUUCACACUGCAAGAGCC: 0.493
AUUACUUUUAUGAUAGUAGAAAUAUUAUAAGCCUAAGACAUGGACUAUCCAUUUUGUAAAACGGAUUUAAGGACAAUUAUCAGGUAUAAUUAAAAUUCUGUUGAAGAAGA: 0.304
AUUAUAUUAAUAGUGAGUUUCAGGCCCCUGGGCAUUUUGUACCAUGUAAUUAUCCUCUGGUGAUGCUGUUUCUCGUUAGUGGCAGUAGUGCCUCCGUCUCCUAGUGAUAA: 0.441
UGUGAUAGAUUCCAGAUAUGCUUUUUGAUGUUUUCCUCUGCUCCAGCUCCAAGAAGUCAGCACACCUGCAUUUUAGCUCUGCAUGCAGCCCCAGCAGGCUGCGUGUUUAA: 0.766
UGCAGUCAGUAAGCAUGUUUGAAAGGACCAUAAAAACCAGAGAAAUGCUGAUGGGAACUUGGAAGUUCAGAAACCAAGGGGAAAUGUCCUGAGAUAACAUUUGCAUUGUC: 7.55
GGGGAAAAAGGGUAGUUUGUUUCAUACUUUUGGAAUUUUUUUUCAGUGAAAAAUAACUGAAGUUCAUGGUUUUUAAAAAAGGUGAUGAUUCCUUUUAUGCUAUCACACAC: 1.05
UGCCUGCAAAGAAAUCUAUUUAACUGAAUCAGCCCAUAAUAUUUGAGGCACGAGGUUACUGUGAUUGAUAGGAAAGAUAAAAAUGAUGUCUGUUUUUGUAGACGAAUAAC: 0.339
GCUCUAGCCUGUACAUCCCACAUCCUCCGUCCGUCUGUCCAUCCAGGGUUUGUCUGUCCUGAAAGUGACACCCACCAGCUCUGCGGGAGACUCUUGGUAGACAGACCUGU: 0.422
GGCUGAGGUCGUGCCCUGCUGGGCUGCCCUCCAAUGUGCCUCACGCAAUAAAGAAUUCUCCCUCUGCGCUUUCCCAUCAGCUCUGUAUCUUGGGAUGGGUCAGCCAUCUU: 1.3
GCACUAUGUAGGUCCCCAUCCACUACUUGACCACCUUUAUCAUUUACGGGGAUUUACAUAGAUUACAGUGGCCAAGACCCCUUUCUCAAUGAAGGAUCUCAUUGGACGUC: 0.418

Study 4 — technique: RNA Bind-n-Seq; form: RNA; medium: in vitro; tested at: not given; baseline: input RNA pool; direction: higher = stronger binding; quantity: bound/input enrichment
Target: RING finger protein unkempt homolog, zinc fingers 1-6, GST-SBP tag (UNK, Homo sapiens, UniProt Q9C0B0, residues 30-357)
Sequence of UniProt Q9C0B0 (30-357, looked up): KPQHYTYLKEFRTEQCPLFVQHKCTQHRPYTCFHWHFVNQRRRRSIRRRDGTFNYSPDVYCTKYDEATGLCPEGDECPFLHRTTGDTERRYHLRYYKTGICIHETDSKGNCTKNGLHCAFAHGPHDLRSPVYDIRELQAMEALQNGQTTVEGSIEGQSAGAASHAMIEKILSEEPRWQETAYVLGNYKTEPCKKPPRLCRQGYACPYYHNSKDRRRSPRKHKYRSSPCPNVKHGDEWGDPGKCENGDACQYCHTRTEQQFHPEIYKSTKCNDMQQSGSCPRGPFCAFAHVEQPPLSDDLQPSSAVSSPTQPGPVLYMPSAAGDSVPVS
Notes: RNA with constant flanks, human and mouse sites, ends assumed
Constant ends, left off below: GGGAGUUCUACAGUCCGACGAUC … CAACAGAGGAUUGAGCAUCA
AAACACCCUUUGUAUUCCAAAAUAGGGUCUCAAAACAUUUUGUAAUUUUCAUUUAAAUUGUUAGGAGGCUUGGAGCUAUUAGUUAAUCUAUCUUCCAAUACUGUUUAAUAUAGCACUGAA: 1.68 ratio
GGGAACCCUGCCUGUUCAGCCCAGGUGCAGCAUGUCUCGCCUUCCAUUUUCCCAGCUCAUUUAGCAAGUGUAUCAGCUCCAUUGUUACCCUCAGUGGAAAGUGUCCUAAGUCCAAAUAUA: 0.326 ratio
AAUUUUCAUUUCGCUUGUGUUCAUGGUGUGUGCUCCCAACCCCCUUUCCUCCCCUGACCCCUUAGUCCUUCAUUCCCAGUUUUCCGGAAUGAUACUUUAGGAGGAAUAGAUUGUAAAGAG: 1.24 ratio
GCAAGACGGUGUAGUGUGACGUCCAUGGAGUCCACAGUGUCCUCGGGGACCCAGACAACUGUUCAGGAUGACCCUGAGCAAUUUGAGGUCAUCAAGCAACAAAAAGAAAUCAUUGAACAC: 0.108 ratio
UCCCCAAGUGGAGUUUCACUCAUACUUGAAAGGCCCUGCCCAGGAAGGGUUUGUUUCCACAUUGAAUGGCGACAGCCACAUUUCAGAGCAUCCUGCAGAAAAUCCUUUGAGCCUUGCAGA: 0.0812 ratio
AACAACAAAAAACCCCAAGGAACCUAAUAACCUUUUUGAAAAACAAAAUAAUGAGAAUUUUUAGUGAUAUAUUUCUUAUUUGACAGAAUAAGGUGUCUGGAGGGGGUCCUGUACUCAUCC: 0.697 ratio
UGGCGGUUCAGCAACAUGAAGCAGUGGAAUGUCAACUGGGAGAUCAAGAUGGUCACUGUAGAGUUUGCAGAUGAGGUCCGGUUGUCCUUCAUCUGUACCGAAGUAGACUGCAAGGUGGUC: 0.261 ratio
ACUAAAGAACUGGAAAAGAUGACAAAUCGGCAAGGCAUGCUAUUGAAGAAGAAAGAAGAGUGUAUGAAGAAAAUUCGAGAACUUGGAUCACUUCCCCAGGAAGCAUUUGAAAAGUACCAG: 0.211 ratio
AAUAUCACUUCCAGGACCUGCCAGACGCAGUUCCCCCCAGAGGGUUGUGUUCUCAGUUUGUUCAUUGCUAAGUUCCUGUCUGACUUUAUUGUAACUUCUGAAAGGCUAGAUUUCCUCUCU: 0.177 ratio
AACUGCCUAAAUUGUUGGGUCUGCUUCUGUGGUCUAUGCAUAUUUUAGCAUAAAUUUAGUUGAUAUUGCAGCCAGAGUAUUUACCUAGAACCAGACUAACCUAUAGCCCCUAUAAAUGCU: 9.71 ratio
AUUAAUUGGACAGAACAGAACUACCCUCAAGGGGGGAAAGAGAGUAACAUGUCAGCGUUAGUGGAGAGAGCGAUAGAAGCACUCCAAGGAGAGACGCGCUAUUAUAAUGACCCCCGCUUU: 0.191 ratio

Repeated from above (study 1):
UCAAGUCCUGUGCUACACAUCGUAUGUACCGAAUCGGUGGAAAAAGGAAAAAGGAAAGUAUUAUGUUACGCCGUUCGGAUCUGCACUUCC: -0.537
GUCCUGUGCUACACAUCGUAUGUACCGAAUCGGGGAAAAAAAGGGGAGGGGUUUGGGGAAAGUAUUAUGUUACGCCGUUCGGAUCUGCAC: 0.34
CACAGACAACACGCACCCACACAGACACAGAGGGAAGGGGUUGGGAUGGGGACAGGGUGCACAGCAGAGCGGGGUAGGACCCCAGCCCCU: 1.22
UUAGAUGAGGACCUUGAGAUUGAAUUGGUUGAGGAAGAGCCUCCAUUCCUGAGAGGGCACACUAAGCAAAGCAUGGACAUGAGCCCCAUU: -0.482
AGUCCUGUGCUACACAUCGUAUGUACCGAAUCGGGGUUUUGGGGUUUUGGUUUUGGGAAAGUAUUAUGUUACGCCGUUCGGAUCUGCACU: 0.178
CAAGUCCUGUGCUACACAUCGUAUGUACCGAAUCGGAAAGGGGAAAGGGGAAAGGAAAGUAUUAUGUUACGCCGUUCGGAUCUGCACUUC: -0.178
UCAAGUCCUGUGCUACACAUCGUAUGUACCGAAUCGGUUUGGUGGAAAAAAAGGAAAGUAUUAUGUUACGCCGUUCGGAUCUGCACUUCC: -0.268
CUCAAGUCCUGUGCUACACAUCGUAUGUACCGAAUCGGGUUGGGUUGGUUGGGAAAGUAUUAUGUUACGCCGUUCGGAUCUGCACUUCCA: 1.07
UGGGAGGUGGAUUUUGUUUAUUUUUUUAGCUCAUUUCCAGGGGUGGGAAUUUUUUUUUAACAUGUGUCAUGAAUAAAGUUGUUUUUGAAA: 0.152
CACAGACAACACGCACCCACACAGACACAGUGGGAAGGGGUUGGGAUGGGGACAGGGUGCACAGCAGGGCGGGGUAGGACCCCAGCCCCU: 1.34
